Results from different studies.
Each line is one published result; not all experiments were run side by side. “And” joins repeats or separate records; there may be more than shown. ± gives the spread as reported.

Cn1ccc2cc(-n3c(=O)[nH]c4sc5c(c4c3=O)CCCC5)ccc21 — inhibition (L-type calcium channel rat; binding, radioligand binding; 10 µM, benzothiazepine site): 22%
CCC1Sc2ccc(S(=O)(=O)CCC(=O)Nc3cccc4ccccc34)cc2NC1=O (centres unmarked) — inhibition ratio (P2X7; ATP-evoked current, inhibitor, whole-cell patch clamp; 30 µM; reference: ATP alone): 0.7 and 0.87 and 0.78 and 0.88
CCC(=O)N(C)c1ccc(Cl)c(Cl)c1 — inhibition (alpha 1 adrenergic receptor; binding, radioligand binding; 10 µM): < 10%
C=CC(=O)N1[C@@H](c2ccc3c(c2)OCO3)c2[nH]c3ccccc3c2C[C@H]1C(=O)N1CCN(C)CC1 — relative co-enrichment (human cyclin E1 wild type-3xFLAG:CDK2; co-IP with TMT proteomics, refers to: HSPA8; concentration not given, P11142; reference: wild type DMSO): 103%
Nc1ncc(-c2cc(-c3cnn(CC(F)(F)F)c3)ncc2F)nc1C(=O)NC1CNCC(F)C1 (centres unmarked) — remaining binding (NEK11; KINOMEscan; 1 µM; reference: DMSO control): 88%
CC(=O)NCC1CCCCN1c1nc(N2CCN(c3nnc[nH]3)CC2)nc(N2CC3C(CCOc4cc(-c5scnc5C)ccc4CNC(=O)[C@@H]4C[C@@H](O)CN4C(=O)[C@@H](NC(=O)C4(F)CC4)C(C)(C)C)C3C2)n1 (some centres unmarked) — cooperativity alpha (BRD9 and VHL-elongin C-elongin B; SPR; immobilized BRD9; reference: binary KD over ternary KD): > 19
Cc1cccc(O[C@H]2CCC[C@@H](C(C)CNCc3ccncc3)C2)c1 (relative stereo) — inhibition (kappa opioid receptor (human); binding, Cerep safety panel; 10 µM): 83%
COC(=O)CCc1ccc(N)cc1 — average chemical shift perturbation (HBV core protein Cp149 dimer; solution NMR; 4 molar equivalents, pH 7.5, 295 K, average over eight residues; reference: apo Cp149 dimer): 0.021 ppm
C=CC(=O)Nc1cccc(Cn2ncc3cnc(Nc4cnn(CCOC)c4)nc32)c1 — percent of control (FES human; binding, KINOMEscan; 100 nM; lower = stronger binding): 100%
Nc1ccc(C2CC2)cc1 — average chemical shift perturbation (HBV core protein Cp149 dimer; solution NMR; 4 molar equivalents, pH 7.5, 295 K, average over eight residues; reference: apo Cp149 dimer): 0.029 ppm
CC[C@H](C)[C@H](NC(=O)[C@@H]1CCCN1C(=O)[C@@H](NC(=O)[C@H](C)N)C(C)C)C(=O)N[C@@H](C)C(=O)N[C@@H](CCC(N)=O)C(=O)N[C@@H](CCCCN)C(=O)N[C@@H](CO)C(=O)N[C@@H](CCC(=O)O)C(=O)N1CCC[C@H]1C(=O)N[C@@H](Cc1ccccc1)C(=O)N[C@@H](CCCCN)C(=O)N[C@@H](CCCCN)C(=O)N[C@@H](CCCCN)C(=O)N[C@@H](CCCCNC(=O)CCCCCNC(=S)Nc1ccc2c(c1)C(=O)OC21c2ccc(O)cc2Oc2cc(O)ccc21)C(N)=O — log2 fold change (BIRC2 (human); concentration not given, 100-fold competition; reference: no competitor): 4.98
CC(C)(C)CC(C)(C)c1ccc(N)cc1 — average chemical shift perturbation (HBV core protein Cp149 dimer; solution NMR; 4 molar equivalents, pH 7.5, 295 K, average over eight residues; reference: apo Cp149 dimer): 0.103 ppm
Fc1ccc(Nc2nc(NC3CCCCC3)c3cc(C(F)(F)F)ccc3n2)cc1F — maximal inhibition (β2AR/β1AR ICL3 chimera; β-arrestin2 recruitment, antagonist, BRET; reference: isoprenaline maximal response): -13.5%
c1ccc(-c2n[nH]cc2-c2ccnc3ccccc23)nc1 — log2 fold change (TOR1 (Candida albicans); kinase binding, MIB/MS competition; Candida albicans lysate; 10 µM; reference: DMSO): -0.36
CC(=O)NCC1CCCCN1c1nc(N(C)CCc2ncc(C)s2)nc(N2CC3C(CCOc4cc(-c5scnc5C)ccc4CNC(=O)[C@@H]4C[C@@H](O)CN4C(=O)[C@@H](NC(=O)C4(F)CC4)C(C)(C)C)C3C2)n1 (some centres unmarked) — cooperativity alpha (BRD9 and VHL-elongin C-elongin B; SPR; immobilized BRD9; reference: binary KD over ternary KD): > 45
CCCCCCc1ccc(N(C)C(=O)OC(C)(C)C)cc1 — average chemical shift perturbation (HBV core protein Cp149 dimer; solution NMR; 4 molar equivalents, pH 7.5, 295 K, average over eight residues; reference: apo Cp149 dimer): 0.008 ppm
O=c1c(-c2ccc(F)cc2)c[nH]c2ccnc(Cl)c12 — binding free energy change (WDR5; reference: parent hit compound, negative = stronger binding): -0.5 kcal/mol
CCCCCC=CC=C1C(=O)C=CC1CC=CCCCC(=O)O (centres unmarked) — isoTOP-ABPP ratio (hippocalcin (human); IA-probe cysteine labelling, covalent modifier, competitive isoTOP-ABPP; proteome, soluble, MDA-MB-231; 100 µM, 60 min, in vitro; reference: DMSO over compound, higher = stronger blockade): 6.8
CC(C)Cc1ccc(N)cc1 — average chemical shift perturbation (HBV core protein Cp149 dimer; solution NMR; 4 molar equivalents, pH 7.5, 295 K, average over eight residues; reference: apo Cp149 dimer): 0.052 ppm
C#CCN1CCN(c2nc(N3CCC(CCOc4cc(-c5scnc5C)ccc4CNC(=O)[C@@H]4C[C@@H](O)CN4C(=O)[C@@H](NC(=O)C4(F)CC4)C(C)(C)C)CC3)nc(N3CCN(C(=O)C4CC4)C3)n2)CC1=O — cooperativity alpha (BRD9 and VHL-elongin C-elongin B; SPR; immobilized BRD9; reference: binary KD over ternary KD): 0.58
CC(C)OCc1ccc(CO)cc1 — average chemical shift perturbation (HBV core protein Cp149 dimer; solution NMR; 4 molar equivalents, pH 7.5, 295 K, average over eight residues; reference: apo Cp149 dimer): 0.021 ppm
Fc1ccc(Nc2nc(NC3CCCCC3)c3ccccc3n2)cc1F — pIC50 (β2AR/β1AR ICL3 chimera; β-arrestin2 recruitment, antagonist, BRET; with: isoprenaline 1 µM): 5.7
CCCCCCc1ccc(N(Cc2ccccc2)C(=O)OC(C)(C)C)cc1 — average chemical shift perturbation (HBV core protein Cp149 dimer; solution NMR; 4 molar equivalents, pH 7.5, 295 K, average over eight residues; reference: apo Cp149 dimer): 0.014 ppm
Cc1cn(CC(=O)N(CC(=O)N[C@H]2CCC[C@@H]2N(CC(=O)N[C@H]2COC[C@@H]2N(CC(=O)N[C@H]2COC[C@@H]2N(CC(=O)N[C@H]2COC[C@@H]2N(CC(=O)NCCOCCOCC(N)=O)C(=O)Cn2cnc3c(N)ncnc32)C(=O)Cn2cc(C)c(=O)[nH]c2=O)C(=O)Cn2cnc3c(N)ncnc32)C(=O)Cn2cnc3c(=O)[nH]c(N)nc32)[C@H]2CCC[C@@H]2NC(=O)CN(C(=O)Cn2cnc3c(=O)[nH]c(N)nc32)[C@H]2CCC[C@@H]2NC(=O)CN(C(=O)Cn2cc(C)c(=O)[nH]c2=O)[C@H]2COC[C@@H]2NC(=O)CN(C(=O)Cn2cnc3c(N)ncnc32)[C@H]2COC[C@@H]2NC(=O)CN(C(=O)Cn2cnc3c(=O)[nH]c(N)nc32)[C@H]2COC[C@@H]2N)c(=O)[nH]c1=O — Tm (complementary DNA; duplex formation, UV melting; PBS; 1 µM, pH 7.2): 84.52 ± 0.3 °C
Cc1ncsc1-c1ccc(CNC(=O)[C@@H]2C[C@@H](O)CN2C(=O)[C@@H](NC(=O)C2(F)CC2)C(C)(C)C)c(OCCC2CCN(c3nc(N(C)CCNC(=O)C(C)C)nc(N4CCn5nnc(CO)c5C4)n3)CC2)c1 — cooperativity alpha (BRD9 and VHL-elongin C-elongin B; SPR; immobilized BRD9; reference: binary KD over ternary KD): 6.2
CC(C)(C)CC(C)(C)c1ccc(CO)cc1 — average chemical shift perturbation (HBV core protein Cp149 dimer; solution NMR; 4 molar equivalents, pH 7.5, 295 K, average over eight residues; reference: apo Cp149 dimer): 0.09 ppm

Some of these lines once more:
CCCCCCc1ccc(N(C)C(=O)OC(C)(C)C)cc1 — average chemical shift perturbation (HBV core protein Cp149 dimer; solution NMR; 4 molar equivalents, pH 7.5, 295 K, average over eight residues; reference: apo Cp149 dimer): 0.008 ppm
O=c1c(-c2ccc(F)cc2)c[nH]c2ccnc(Cl)c12 — binding free energy change (WDR5; reference: parent hit compound, negative = stronger binding): -0.5 kcal/mol
